{"data": "Results collected from several papers"}
{"Compound": "O=C(Nc1ccc(N2CCCN(C(=O)c3cnccn3)CC2)nc1)c1ccncc1", "organism": "Mycobacterium tuberculosis", "assay": "bacterial growth", "system": "H37Ra-lux", "conditions": "168 h", "quantity": "IC90", "value": "> 64 µM"}
{"Compound": "CCC(CC)C(=O)N1CC(=O)N[C@@H](CC(C)C)c2nc(cs2)C(=O)N[C@@H](Cc2ccccc2)c2nc(C)nn2CC(=O)N[C@@H](C(C)C)C1", "organism": "Lassa mammarenavirus", "assay": "viral replication", "system": "Huh-7", "conditions": "10 µM, 72 h", "quantity": "remaining activity", "value": "98%"}
{"Compound": "CS(=O)(=O)NCC1CCOC2(CCN(C(=O)C3(c4ccccc4)CCCC3)CC2)C1 (centres unmarked)", "organism": "Venezuelan equine encephalitis virus", "assay": "viral replication", "quantity": "EC50", "value": "7.94 µM"}
{"Compound": "Nc1ncnc2c1ncn2[C@@H]1O[C@@H]2COP(=O)(O)O[C@H]3[C@@H](O)[C@H](n4cnc5c(=O)[nH]cnc54)O[C@@H]3COP(=O)(O)O[C@H]2[C@H]1O", "organism": "Chikungunya virus", "assay": "upregulated Reactome pathway, RNA sequencing, refers to: Generic Transcription Pathway (R-HSA-212436)", "system": "HFF-1", "how to read": "reference: CHIKV-infected untreated", "quantity": "fold enrichment", "value": 1.84}
{"Compound": "CNC(=O)[C@@H](NC(=O)[C@H](CC(C)C)[C@H](O)C(=O)NO)C(C)(C)C", "organism": "Daboia russelii", "system": "C2C12", "conditions": "100 µM, added: Daboia russelii venom TN", "how to read": "reference: venom alone", "quantity": "viability difference", "value": "-19.2%"}
{"Compound": "CC1CCCCN1CCCNC(=O)c1cc(Sc2cccc(Cl)c2)nc2ccccc12 (centres unmarked)", "organism": "SARS-CoV-2", "assay": "cytopathic effect, cell-based CPE", "system": "USA_WA1/2020", "conditions": "round 2, 5-point dilution", "quantity": "AC50", "value": "10 µM"}
{"Compound": "Cn1c(=O)ccc2ccc(F)c(CCNC[C@H]3CN(c4cnc5c(n4)NC(=O)CO5)C(=O)O3)c21", "organism": "Burkholderia mallei", "quantity": "MIC90", "value": "1 µg/mL"}
{"Compound": "COc1ccc2cc(-c3n[nH]cc3CNC3(c4ccccc4)CC3)ccc2c1", "organism": "Lassa mammarenavirus", "assay": "viral replication", "system": "Huh-7", "conditions": "10 µM, 72 h", "quantity": "remaining activity", "value": "49%"}
{"Compound": "CCc1c(C(=O)C(N)=O)c2c(OCC(=O)O)cccc2n1Cc1ccccc1", "organism": "Daboia russelii", "system": "C2C12", "conditions": "100 µM, added: Daboia russelii venom TN", "how to read": "reference: venom alone", "quantity": "viability difference", "value": "-48.5%"}
{"Compound": "Nc1ncnc2c([C@@H]3N[C@H](CO)[C@@H](O)[C@H]3O)c[nH]c12", "organism": "Lassa mammarenavirus", "assay": "viral replication", "system": "HeLa, Josiah", "conditions": "50 µM", "quantity": "inhibition", "value": "55%"}
{"Compound": "COc1ccccc1-c1ccc(CN2CCCC(c3nc4ccc(C)cc4c(=O)[nH]3)C2)cc1 (centres unmarked)", "organism": "SARS-CoV-2", "assay": "cytopathic effect", "system": "USA_WA1/2020", "conditions": "round 1, 5-point", "quantity": "maximum response", "value": "89.2%"}
{"Compound": "CN(C)CCOC(C)(c1ccccc1)c1ccccn1 (centres unmarked)", "organism": "Ebola virus Zaire", "assay": "pseudovirus entry", "system": "A549", "how to read": "reference: CC50 over IC50", "quantity": "selectivity index", "value": "> 7"}
{"Compound": "O=C(NCc1ccccc1Cl)C1CCCN(Cc2cccc(-c3ccc(F)cc3F)c2)C1 (centres unmarked)", "organism": "SARS-CoV-2", "assay": "cytopathic effect, cell-based CPE", "system": "USA_WA1/2020", "quantity": "AC50", "value": "14.1 µM"}
{"Compound": "O=c1ccn([C@@H]2O[C@](F)(CO)[C@@H](O)[C@H]2O)c(=O)[nH]1", "organism": "Crimean-Congo hemorrhagic fever virus", "system": "recombinant reporter", "conditions": "concentration not given", "quantity": "viral replication", "value": "inhibited"}
{"Compound": "CO[C@H]1CC[C@H](n2c([C@@H]3CCCC(=O)N3c3ccc(F)c(F)c3)nc3cc(-c4c(C)noc4C)ccc32)CC1 (relative stereo)", "organism": "SARS-CoV-2", "assay": "viral replication, high-content imaging screen", "system": "BetaCov/Belgium/GHB-03021/2020", "conditions": "cell-based", "quantity": "EC50", "value": "> 100 µM"}
{"Compound": "O=C(Nc1ncc(CCc2ccccc2)s1)C1CCCC1", "organism": "Histoplasma capsulatum", "assay": "microbial growth", "quantity": "MIC", "value": "2.5 µM"}
{"Compound": "CC(C)=CCc1c(O)ccc(C(=O)/C=C/c2ccc(O)cc2)c1O", "organism": "SARS-CoV-2", "assay": "viral replication", "system": "Vero E6", "conditions": "100 µM", "quantity": "CPE inhibition", "value": "100%"}
{"Compound": "CN(C)CCCN1c2ccccc2Sc2ccccc21", "organism": "SARS-CoV-2", "assay": "viral replication, high-content imaging screen", "conditions": "cell-based", "quantity": "EC50", "value": "> 100 µM"}
{"Compound": "O=C(/C=C/c1ccc(O)c(O)c1/C=C/c1ccc(O)c(O)c1)O[C@H](Cc1ccc(O)c(O)c1)C(=O)O", "organism": "SARS-CoV-2", "assay": "viral replication", "system": "Vero E6", "conditions": "12.5 µM", "how to read": "reference: mean of replicates", "quantity": "CPE inhibition", "value": "0%"}
{"Compound": "CCN(CCO)CCCC(C)Nc1ccnc2cc(Cl)ccc12 (centres unmarked)", "organism": "SARS-CoV-2", "assay": "viral replication, GFP plate reader screen", "conditions": "cell-based", "quantity": "EC50", "value": "11.6 µM"}
{"Compound": "O=C(NCCN1CCCCC1)c1ccc(-c2ccc(N3CCSCC3)nc2)cc1", "organism": "SARS-CoV-2", "assay": "cytopathic effect, cell-based CPE", "system": "USA_WA1/2020", "conditions": "round 2, 5-point dilution", "quantity": "AC50", "value": "12.6 µM"}
{"Compound": "CNCc1ccc(-c2cc(-c3nc(-c4ccc(S(=O)(=O)C(C)C)cc4)cnc3N)on2)cc1", "organism": "SARS-CoV-2", "assay": "viral replication, high-content imaging screen", "conditions": "cell-based", "quantity": "EC50", "value": "8.32 µM"}
{"Compound": "Cc1cccc(Cc2cnc(NC(=O)C3CCC3)s2)c1", "organism": "Histoplasma capsulatum", "assay": "microbial growth", "quantity": "MIC", "value": "5 µM"}
{"Compound": "Cc1ncc([N+](=O)[O-])n1CCO", "organism": "Clostridium perfringens", "quantity": "MIC90", "value": "1 µg/mL"}
{"Compound": "O=C1CC(c2nc3c(s2)CCCC3)c2cc3cn[nH]c3cc2N1 (centres unmarked)", "organism": "Lassa mammarenavirus", "assay": "viral replication", "system": "Huh-7", "conditions": "10 µM, 72 h", "quantity": "remaining activity", "value": "30%"}
{"Compound": "Cc1c(-c2ccc(O)cc2)n(Cc2ccc(OCCN3CCCCC3)cc2)c2ccc(O)cc12", "organism": "SARS-CoV-2", "assay": "viral replication, GFP plate reader screen", "conditions": "cell-based", "quantity": "EC50", "value": "3.63 µM"}
{"Compound": "O=C(NCc1cccs1)C1CCCN(Cc2cccc(-c3ccc(F)cc3F)c2)C1 (centres unmarked)", "organism": "SARS-CoV-2", "assay": "cytopathic effect", "system": "USA_WA1/2020", "conditions": "round 1, 5-point", "quantity": "efficacy", "value": "82.7%"}
{"Compound": "Nc1nc2nn[nH]c2c(=O)[nH]1", "organism": "SARS-CoV-2", "assay": "viral replication, GFP plate reader screen", "conditions": "cell-based", "quantity": "EC50", "value": "> 50.1 µM"}
{"Compound": "Cn1ccnc1-c1ccc(N2CCCC(CO)(Cc3ccccc3F)C2)nn1 (centres unmarked)", "organism": "Lassa mammarenavirus", "assay": "viral replication", "system": "Huh-7", "conditions": "10 µM, 72 h", "quantity": "remaining activity", "value": "42%"}
{"Compound": "N#Cc1ccc2c(c1)N(CCCN1CCC(O)CC1)c1ccccc1S2", "organism": "SARS-CoV-2", "assay": "viral replication, high-content imaging screen", "conditions": "cell-based", "quantity": "EC50", "value": "> 100 µM"}
{"Compound": "CCCN(Cc1ccc(SC)cc1)C(=O)c1cnc2ccccn2c1=O", "organism": "Lassa mammarenavirus", "assay": "viral replication", "system": "Huh-7", "conditions": "10 µM, 72 h", "quantity": "remaining activity", "value": "43%"}
{"Compound": "Cc1ccc(-c2cccc(CN3CCCC(c4nc5ccc(C)cc5c(=O)[nH]4)C3)c2)c(C)c1 (centres unmarked)", "organism": "SARS-CoV-2", "assay": "cytopathic effect", "system": "USA_WA1/2020", "conditions": "retest, 8-point, duplicates", "quantity": "maximum response", "value": "96.7%"}
{"Compound": "CC(Cn1cncn1)NCc1cc(-c2ccccc2Cl)on1 (centres unmarked)", "organism": "Lassa mammarenavirus", "assay": "viral replication", "system": "Huh-7", "conditions": "10 µM, 72 h", "quantity": "remaining activity", "value": "36%"}
{"Compound": "CCN(CC)CCNC(=O)c1ccc(NS(C)(=O)=O)cc1", "organism": "SARS-CoV-2", "assay": "viral replication, GFP plate reader screen", "conditions": "cell-based", "quantity": "EC50", "value": "3.89 µM"}
{"Compound": "CC#CCN1CC=C(c2cnn(CCCC)c2)CC1", "organism": "Lassa mammarenavirus", "assay": "viral replication", "system": "Huh-7", "conditions": "10 µM, 72 h", "quantity": "remaining activity", "value": "63%"}
{"Compound": "CCCCN(CCCC)CCCNC(=O)c1cc(-c2ccc(Cl)s2)nc2ccccc12", "organism": "SARS-CoV-2", "assay": "cytopathic effect", "system": "USA_WA1/2020", "conditions": "retest, 8-point, duplicates", "quantity": "efficacy", "value": "63.8%"}
{"Compound": "CSc1ccc(C2c3[nH]c4ccccc4c3CCN2C(=O)CCc2cccs2)cc1 (centres unmarked)", "organism": "Lassa mammarenavirus", "assay": "viral replication", "system": "Huh-7", "conditions": "10 µM, 72 h", "quantity": "remaining activity", "value": "41%"}
{"Compound": "COc1cccc(-c2ccc(CN3CCCC(c4nc5ccc(C)cc5c(=O)[nH]4)C3)cc2)c1 (centres unmarked)", "organism": "SARS-CoV-2", "assay": "cytopathic effect", "system": "USA_WA1/2020", "conditions": "retest, 8-point, duplicates", "quantity": "efficacy", "value": "45.4%"}
{"note": "Excerpt of the above:"}
{"Compound": "Nc1ncnc2c([C@@H]3N[C@H](CO)[C@@H](O)[C@H]3O)c[nH]c12", "organism": "Lassa mammarenavirus", "assay": "viral replication", "system": "HeLa, Josiah", "conditions": "50 µM", "quantity": "inhibition", "value": "55%"}
{"Compound": "CN(C)CCOC(C)(c1ccccc1)c1ccccn1 (centres unmarked)", "organism": "Ebola virus Zaire", "assay": "pseudovirus entry", "system": "A549", "how to read": "reference: CC50 over IC50", "quantity": "selectivity index", "value": "> 7"}
{"Compound": "CC(C)=CCc1c(O)ccc(C(=O)/C=C/c2ccc(O)cc2)c1O", "organism": "SARS-CoV-2", "assay": "viral replication", "system": "Vero E6", "conditions": "100 µM", "quantity": "CPE inhibition", "value": "100%"}
{"Compound": "CNCc1ccc(-c2cc(-c3nc(-c4ccc(S(=O)(=O)C(C)C)cc4)cnc3N)on2)cc1", "organism": "SARS-CoV-2", "assay": "viral replication, high-content imaging screen", "conditions": "cell-based", "quantity": "EC50", "value": "8.32 µM"}
